Assay results pooled from the literature.
Each numbered part is a random draw from the data of one study; scales do not carry over between parts.

Sample 1 — technique: aptamer microarray, sandwich; molecule type: DNA with 2'F-ANA; matrix: in vitro; tested at: 200 nM; together with: Cy3 exosite-II aptamer, 400 nM; reading: higher = stronger binding
Target: Prothrombin, mature alpha-thrombin (F2, Homo sapiens, UniProt P00734)
Notes: whole 15-mer aptamer, many near background
Sequence | mean fluorescence intensity [a.u.]
GGTTGGTGTGGTTGG (2'F-ANA at 1 3 6 7 8 11 13 15) | 242
GGTTGGTGTGGTTGG (2'F-ANA at 4 5 6 7 8 12 13 14 15) | 48.3
GGTTGGTGTGGTTGG (2'F-ANA at 1 4 6) | 114
GGTTGGTGTGGTTGG (2'F-ANA at 3 5 6 8 15) | 166

Sample 2 — technique: protein-binding microarray; molecule type: double-stranded DNA, one strand shown; matrix: in vitro; tested at: 2540 nM top; notes: 60-bp whole probe; together with: salmon DNA 0.4 mg/ml; reference: random background probes; reading: higher = stronger binding; shared flanks, not repeated: GCCTAGCAC … GTCTTGATTCGCTTGACGCTGCTG
Target: Interferon regulatory factor 3, full length, phosphomimetic (IRF3, Homo sapiens, UniProt Q14653, residues 1-427, S386D/S396D/S398D/S402D/T404D/S405D)
Target sequence (chain): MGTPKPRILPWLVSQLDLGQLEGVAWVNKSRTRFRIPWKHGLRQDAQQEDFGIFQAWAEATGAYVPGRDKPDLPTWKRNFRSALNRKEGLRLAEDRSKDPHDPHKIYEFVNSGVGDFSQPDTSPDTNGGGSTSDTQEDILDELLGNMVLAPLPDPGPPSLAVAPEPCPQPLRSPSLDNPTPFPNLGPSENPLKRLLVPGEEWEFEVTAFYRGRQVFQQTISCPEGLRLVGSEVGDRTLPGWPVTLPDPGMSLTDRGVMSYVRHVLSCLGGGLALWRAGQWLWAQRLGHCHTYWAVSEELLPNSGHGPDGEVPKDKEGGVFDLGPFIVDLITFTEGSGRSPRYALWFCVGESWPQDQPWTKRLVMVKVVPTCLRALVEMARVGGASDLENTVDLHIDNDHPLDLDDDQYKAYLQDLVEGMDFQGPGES
Sequence | fitted relative affinity
TTAGGTCTGGACACTGGGTTAGTGCTA | -0.779 z-score
CTGTGTGTCAGGTTTACTAGGGTGCTA | 0.991 z-score
GTAGGTATCCTTTTCCTTTAGTGCTAG | 8.47 z-score
CACGGTATCGACTATCGGGACGTGCTA | 0.401 z-score
TTCGGACTGCTACTGCTTTAGTGCTAG | -0.652 z-score

Sample 3 — technique: universal PBM; molecule type: double-stranded DNA, one strand shown; matrix: in vitro; tested at: not given; reading: higher = stronger binding
Target: Sal-like protein 4, full length isoform B (SALL4, Homo sapiens, UniProt Q9UJQ4-2, residues 1-616)
Notes: 8-mer, flanks averaged, mean of replicates
Target sequence (chain): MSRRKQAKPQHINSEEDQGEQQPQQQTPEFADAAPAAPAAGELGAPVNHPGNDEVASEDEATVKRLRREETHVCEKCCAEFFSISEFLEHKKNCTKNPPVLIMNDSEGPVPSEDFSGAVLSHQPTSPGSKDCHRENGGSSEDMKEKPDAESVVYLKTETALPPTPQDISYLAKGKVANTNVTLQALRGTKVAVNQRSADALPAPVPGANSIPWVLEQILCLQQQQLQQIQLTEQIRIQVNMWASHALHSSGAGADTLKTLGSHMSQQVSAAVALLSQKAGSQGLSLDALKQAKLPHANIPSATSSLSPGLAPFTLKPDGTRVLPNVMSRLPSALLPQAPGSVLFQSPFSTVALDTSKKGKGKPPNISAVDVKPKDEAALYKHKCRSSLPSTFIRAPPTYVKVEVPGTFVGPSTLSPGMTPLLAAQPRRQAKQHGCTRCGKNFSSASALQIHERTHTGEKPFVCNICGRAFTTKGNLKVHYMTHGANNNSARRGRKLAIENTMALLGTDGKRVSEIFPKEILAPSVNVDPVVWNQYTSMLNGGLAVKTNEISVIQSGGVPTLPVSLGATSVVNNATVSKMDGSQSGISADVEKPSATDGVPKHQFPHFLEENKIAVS
Sequence | E-score
ACAGCCTC | -0.232
ACCGATAA | 0.194
AAATTCGG | 0.0359
AGCGGACA | -0.273
GAACCCCC | -0.403

Mixed results
Molecule | target | test | system | conditions | how to read | measurement | result
PhoQ, residues 284 288 289 292 302 303 AAQSYM | PhoP, residues 12 14 15 18 19 GQALL (Escherichia coli, UniProt P23836) | Sort-seq, refers to: YFP reporter | E. coli | PhoQ-PhoP variant library, together with: 10 µM Mg2+ | reference: high Mg2+ state, higher = stronger signaling | fold induction | 6.17

For quick reference, copied from above (sample 1):
Sequence | mean fluorescence intensity [a.u.]
GGTTGGTGTGGTTGG (2'F-ANA at 4 5 6 7 8 12 13 14 15) | 48.3
GGTTGGTGTGGTTGG (2'F-ANA at 1 4 6) | 114
